Published values collected from several papers.
Compare with care: the assays were run in different laboratories. Values joined by “and” are separate records of one study, mostly repeats; a detail may differ. ± marks the error that the study gave.
rep main protease: Replicase polyprotein 1ab, main protease (rep, Severe acute respiratory syndrome coronavirus 2, UniProt P0DTD1)
Spike glycoprotein: Spike glycoprotein (Severe acute respiratory syndrome coronavirus 2, UniProt P0DTC2)
Sequence of UniProt P78348 (whole entry, looked up): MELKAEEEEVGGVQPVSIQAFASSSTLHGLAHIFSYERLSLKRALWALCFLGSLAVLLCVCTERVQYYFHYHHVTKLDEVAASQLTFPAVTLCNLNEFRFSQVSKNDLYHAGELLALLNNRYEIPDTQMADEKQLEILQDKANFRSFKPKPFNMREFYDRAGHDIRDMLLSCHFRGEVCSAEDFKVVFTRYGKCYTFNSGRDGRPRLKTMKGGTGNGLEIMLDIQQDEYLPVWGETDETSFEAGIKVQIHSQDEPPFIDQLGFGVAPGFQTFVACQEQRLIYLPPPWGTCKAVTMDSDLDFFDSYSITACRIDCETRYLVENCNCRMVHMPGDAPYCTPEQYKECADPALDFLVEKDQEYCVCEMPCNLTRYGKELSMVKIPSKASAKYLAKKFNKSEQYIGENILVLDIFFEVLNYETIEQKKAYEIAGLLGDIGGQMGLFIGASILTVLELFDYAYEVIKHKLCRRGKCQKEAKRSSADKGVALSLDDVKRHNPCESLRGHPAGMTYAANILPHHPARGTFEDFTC
Sequence of UniProt Q5XXP4 (whole entry, looked up): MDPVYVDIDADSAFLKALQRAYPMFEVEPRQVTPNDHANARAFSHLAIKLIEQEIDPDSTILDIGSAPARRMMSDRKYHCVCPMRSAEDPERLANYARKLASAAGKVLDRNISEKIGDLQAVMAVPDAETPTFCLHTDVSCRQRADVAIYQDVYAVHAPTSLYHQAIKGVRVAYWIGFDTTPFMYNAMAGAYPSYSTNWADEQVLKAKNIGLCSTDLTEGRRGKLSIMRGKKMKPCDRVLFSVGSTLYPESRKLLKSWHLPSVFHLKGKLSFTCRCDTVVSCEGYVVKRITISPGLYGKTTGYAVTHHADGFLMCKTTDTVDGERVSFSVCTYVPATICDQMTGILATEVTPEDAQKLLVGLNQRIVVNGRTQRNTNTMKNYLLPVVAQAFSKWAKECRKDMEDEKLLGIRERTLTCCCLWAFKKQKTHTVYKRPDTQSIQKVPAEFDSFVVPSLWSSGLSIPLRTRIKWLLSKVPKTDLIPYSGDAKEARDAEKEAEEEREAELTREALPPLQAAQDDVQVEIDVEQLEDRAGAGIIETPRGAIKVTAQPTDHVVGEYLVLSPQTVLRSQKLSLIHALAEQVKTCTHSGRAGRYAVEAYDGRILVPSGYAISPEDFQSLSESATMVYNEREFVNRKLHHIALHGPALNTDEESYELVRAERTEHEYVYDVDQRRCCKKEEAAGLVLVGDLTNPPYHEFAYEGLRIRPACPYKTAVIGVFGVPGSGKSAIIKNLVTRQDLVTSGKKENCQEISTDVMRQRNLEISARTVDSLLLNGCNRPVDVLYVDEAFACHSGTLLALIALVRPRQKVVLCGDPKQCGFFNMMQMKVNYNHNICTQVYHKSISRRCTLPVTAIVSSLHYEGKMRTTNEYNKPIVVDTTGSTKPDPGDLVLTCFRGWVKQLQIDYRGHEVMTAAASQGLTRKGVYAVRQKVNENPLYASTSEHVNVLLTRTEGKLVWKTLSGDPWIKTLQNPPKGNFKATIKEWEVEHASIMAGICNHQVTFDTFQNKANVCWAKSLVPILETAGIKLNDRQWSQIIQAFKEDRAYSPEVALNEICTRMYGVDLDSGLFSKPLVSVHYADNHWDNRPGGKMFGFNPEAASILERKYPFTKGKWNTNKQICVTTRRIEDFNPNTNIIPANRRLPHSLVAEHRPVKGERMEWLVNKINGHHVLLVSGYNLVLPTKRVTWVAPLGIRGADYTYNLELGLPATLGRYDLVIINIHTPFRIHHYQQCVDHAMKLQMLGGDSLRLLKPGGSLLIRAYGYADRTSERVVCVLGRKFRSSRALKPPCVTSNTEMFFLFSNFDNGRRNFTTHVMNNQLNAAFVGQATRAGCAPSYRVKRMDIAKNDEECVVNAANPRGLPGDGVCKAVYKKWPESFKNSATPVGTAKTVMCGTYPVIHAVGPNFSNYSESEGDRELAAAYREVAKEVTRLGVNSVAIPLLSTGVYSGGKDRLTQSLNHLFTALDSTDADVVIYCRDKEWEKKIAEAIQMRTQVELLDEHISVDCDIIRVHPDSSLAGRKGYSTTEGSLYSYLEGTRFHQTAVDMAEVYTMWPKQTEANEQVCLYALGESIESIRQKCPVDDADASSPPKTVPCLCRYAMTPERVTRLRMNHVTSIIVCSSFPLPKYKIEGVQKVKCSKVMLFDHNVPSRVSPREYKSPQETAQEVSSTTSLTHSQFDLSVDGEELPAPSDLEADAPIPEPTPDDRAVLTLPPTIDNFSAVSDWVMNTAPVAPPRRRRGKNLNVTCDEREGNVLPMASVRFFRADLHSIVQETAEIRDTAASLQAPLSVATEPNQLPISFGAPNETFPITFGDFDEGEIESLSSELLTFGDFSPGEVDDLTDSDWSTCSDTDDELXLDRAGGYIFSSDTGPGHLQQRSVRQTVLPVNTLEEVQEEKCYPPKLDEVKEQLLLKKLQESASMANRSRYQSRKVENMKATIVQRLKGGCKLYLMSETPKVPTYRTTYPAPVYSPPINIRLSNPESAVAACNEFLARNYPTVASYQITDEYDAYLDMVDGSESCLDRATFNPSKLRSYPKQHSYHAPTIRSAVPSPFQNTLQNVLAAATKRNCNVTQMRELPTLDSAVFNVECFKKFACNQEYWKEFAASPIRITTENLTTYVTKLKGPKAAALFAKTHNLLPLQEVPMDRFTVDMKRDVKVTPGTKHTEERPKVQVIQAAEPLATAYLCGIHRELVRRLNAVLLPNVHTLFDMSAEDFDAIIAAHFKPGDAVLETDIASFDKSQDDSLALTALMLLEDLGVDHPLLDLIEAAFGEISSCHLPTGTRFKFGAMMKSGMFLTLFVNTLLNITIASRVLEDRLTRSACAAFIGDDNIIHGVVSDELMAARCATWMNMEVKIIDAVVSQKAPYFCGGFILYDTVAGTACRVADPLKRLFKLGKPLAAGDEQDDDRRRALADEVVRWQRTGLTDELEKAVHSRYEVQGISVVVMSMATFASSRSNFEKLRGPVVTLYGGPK
Sequence of UniProt P0DOF5 (whole entry, looked up): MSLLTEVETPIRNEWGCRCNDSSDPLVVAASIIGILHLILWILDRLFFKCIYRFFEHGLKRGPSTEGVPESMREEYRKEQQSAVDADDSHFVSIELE
Sequence of UniProt Q7BQ98 (whole entry, looked up): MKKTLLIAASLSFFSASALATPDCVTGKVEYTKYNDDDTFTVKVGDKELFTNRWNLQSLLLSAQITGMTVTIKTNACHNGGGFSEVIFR
Sequence of UniProt Q12809 (whole entry, looked up): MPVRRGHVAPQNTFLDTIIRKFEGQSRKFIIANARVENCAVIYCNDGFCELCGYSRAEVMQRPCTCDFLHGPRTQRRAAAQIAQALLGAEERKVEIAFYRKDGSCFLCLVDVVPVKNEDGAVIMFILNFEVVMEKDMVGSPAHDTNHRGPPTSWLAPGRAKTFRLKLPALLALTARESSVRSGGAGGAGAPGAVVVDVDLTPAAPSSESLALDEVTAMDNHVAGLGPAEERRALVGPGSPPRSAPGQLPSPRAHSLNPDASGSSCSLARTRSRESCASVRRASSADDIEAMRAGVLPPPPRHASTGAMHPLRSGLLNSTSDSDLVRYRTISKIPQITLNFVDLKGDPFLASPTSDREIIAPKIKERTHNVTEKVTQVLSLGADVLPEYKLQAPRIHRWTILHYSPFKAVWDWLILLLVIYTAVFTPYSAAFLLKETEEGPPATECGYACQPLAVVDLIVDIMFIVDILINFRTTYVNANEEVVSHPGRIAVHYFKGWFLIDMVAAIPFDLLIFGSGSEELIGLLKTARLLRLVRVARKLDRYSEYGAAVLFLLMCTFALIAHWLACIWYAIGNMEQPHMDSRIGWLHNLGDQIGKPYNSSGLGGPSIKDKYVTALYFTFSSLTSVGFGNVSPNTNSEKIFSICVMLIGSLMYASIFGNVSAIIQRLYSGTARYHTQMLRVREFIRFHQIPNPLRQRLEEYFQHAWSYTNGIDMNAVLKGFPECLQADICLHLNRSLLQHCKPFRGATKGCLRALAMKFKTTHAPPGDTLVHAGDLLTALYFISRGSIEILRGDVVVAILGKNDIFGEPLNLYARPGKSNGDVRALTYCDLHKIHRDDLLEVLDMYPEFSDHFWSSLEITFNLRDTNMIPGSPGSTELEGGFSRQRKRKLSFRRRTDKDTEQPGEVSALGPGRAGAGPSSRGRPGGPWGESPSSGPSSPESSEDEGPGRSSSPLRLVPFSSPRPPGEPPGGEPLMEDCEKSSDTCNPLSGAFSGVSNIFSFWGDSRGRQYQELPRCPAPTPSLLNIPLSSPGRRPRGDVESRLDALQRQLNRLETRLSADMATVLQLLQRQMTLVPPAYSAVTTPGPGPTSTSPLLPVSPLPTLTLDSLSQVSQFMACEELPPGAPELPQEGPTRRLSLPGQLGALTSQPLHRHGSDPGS

O=C(NC[C@@H]1Cc2ccccc2CN1C(=O)c1nnn2ccccc12)c1cccc2[nH]ncc12  inhibition (rep main protease; enzyme activity, inhibitor; 5 µM, run 2): 12.8%
CNC(=O)[C@@H](NC(=O)[C@H](CC(C)C)[C@H](O)C(=O)NO)C(C)(C)C  remaining activity (Daboia russelii venom proteases (SVMP); protease activity, inhibitor; AP population; 1 µM, with: azocasein substrate; relative to: venom alone): 77.8% and 72.3% and 74.9%
CS(=O)(=O)C=CCNC(=O)c1ccc2c(c1)NC(=O)CC2  kinact/KI (Polyprotein P1234, nsP2 protease domain (Chikungunya virus, UniProt Q5XXP4); time-dependent inhibitor): 160 ± 20 M⁻¹ s⁻¹
CC(C)(C(=O)NCC(F)(F)C(F)(F)F)C(=O)N[C@@H]1C(=O)Nc2ccccc2-c2ccccc21  inhibition (rep main protease; reporter gene (mKate2), inhibitor; 20 µM): -0.809%
C=C(C[C@@]12C[C@@H](C)C[C@H](O1)[C@H]1O[C@]3(C[C@H]1O2)NC[C@H](C)C[C@@H]3C)[C@H]1O[C@@](O)([C@@H](O)[C@@H]2C[C@H]3O[C@@]4(CC[C@]5(CC=C[C@@H](/C=C/CCC(=O)O)O5)O4)[C@H](C)C[C@H]3O2)[C@H](C)C[C@@H]1C  IC50 (KCNH2 (Homo sapiens, UniProt Q12809); ion current, inhibitor, patch clamp; HEK293 expressing hERG; room temperature, peak tail current): 0.84 µM
O=C1CC(C(=O)N2CC3(CCC3)C[C@H]2CNC(=O)c2cncc3[nH]cnc23)CC(=O)N1  inhibition (rep main protease; enzyme activity, inhibitor; 5 µM, run 1): 10.9%
CC[C@H](C)[C@H](NC(=O)[C@@H]1CCCN1C(=O)[C@H](C)NC(=O)[C@@H]1CSSC[C@@H]2NC(=O)[C@H](CC(=O)O)NC(=O)[C@H](CCCNC(=N)N)NC(=O)[C@H](CCC(=O)O)NC(=O)[C@H](CCCNC(=N)N)NC(=O)CNC(=O)[C@H](CC(=O)O)NC(=O)[C@@H]3CSSC[C@H](NC(=O)[C@H](CCC(=O)O)NC(=O)[C@H](CC(C)C)NC(=O)CNC(=O)[C@H](C)NC(=O)[C@H](CSSC[C@H](NC(=O)[C@H](Cc4ccccc4)NC(=O)[C@@H](N)CO)C(=O)N[C@@H](CC(C)C)C(=O)N[C@@H](C(C)C)C(=O)N[C@@H](CCCCN)C(=O)N[C@@H](Cc4c[nH]c5ccccc45)C(=O)N[C@@H](CCCCN)C(=O)N[C@@H](CCC(N)=O)C(=O)N3)NC2=O)C(=O)N[C@@H](Cc2c[nH]c3ccccc23)C(=O)N[C@@H](CCCCN)C(=O)N[C@@H](CCCNC(=N)N)C(=O)N[C@@H](CCCNC(=N)N)C(=O)NCC(=O)N[C@@H](CC(N)=O)C(=O)N[C@@H](CCCCN)C(=O)N[C@@H](CO)C(=O)N[C@@H](CO)C(=O)N[C@@H](C(C)C)C(=O)N1)C(=O)N[C@H](C(=O)O)[C@@H](C)O  rise time slowing (ASIC1 (Homo sapiens, UniProt P78348); ion current, outside-out patch clamp; HEK-293T; 100 nM; relative to: same patch before toxin): 63 ± 17 fold
O=C(NC[C@@H]1Cc2ccccc2CN1c1nnnn1-c1ccccc1)c1cc[nH]c(=O)c1  inhibition (rep main protease; enzyme activity, inhibitor; 5 µM, run 2): 11.6%
C[C@@H]1O[C@@H](Oc2c(-c3cc(O)c(O)c(O)c3)oc3cc(O)cc(O)c3c2=O)[C@H](O)[C@H](O)[C@H]1O  kon (Spike glycoprotein; binding, biolayer interferometry): 38.9 M⁻¹ s⁻¹
NC(=O)c1cc(C(=O)NC[C@H]2CN(C(=O)/C=C/c3cccnc3)Cc3ccccc32)c[nH]1  inhibition (rep main protease; enzyme activity, inhibitor; 5 µM, run 1): 59.3%
CC[C@H](C)[C@H](NC(=O)[C@H](CC(C)C)NC(=O)[C@H](Cc1c[nH]c2ccccc12)NC(=O)[C@H](CCC(N)=O)NC(=O)[C@@H](NC(=O)[C@H](Cc1ccccc1)NC(=O)[C@H](C)NC(=O)[C@H](CCCCNC(=O)COCCOCCNC(=O)COCCOCCNC(=O)CC[C@H](NC(=O)CCCCCCCCCCCCCCCCCCC(=O)O)C(=O)O)NC(=O)[C@H](CCC(N)=O)NC(=O)[C@H](C)NC(=O)[C@@H](NC(=O)[C@H](CCCCN)NC(=O)[C@H](CC(=O)O)NC(=O)[C@H](CC(C)C)NC(=O)C(C)(C)NC(=O)[C@@H](NC(=O)[C@H](CO)NC(=O)[C@H](Cc1ccc(O)cc1)NC(=O)[C@H](CC(=O)O)NC(=O)[C@H](CO)NC(=O)[C@@H](NC(=O)[C@H](Cc1ccccc1)NC(=O)[C@@H](NC(=O)CNC(=O)[C@H](CCC(=O)O)NC(=O)C(C)(C)NC(=O)[C@@H](N)Cc1ccc(O)cc1)[C@@H](C)O)[C@@H](C)O)[C@@H](C)CC)[C@@H](C)CC)C(C)C)C(=O)N[C@@H](C)C(=O)NCC(=O)NCC(=O)N1CCC[C@H]1C(=O)N[C@@H](CO)C(=O)N[C@@H](CO)C(=O)NCC(=O)N[C@@H](C)C(=O)N1CCC[C@H]1C(=O)N1CCC[C@H]1C(=O)N1CCC[C@H]1C(=O)N[C@@H](CO)C(N)=O  subjects with hypoglycaemia (item: blood glucose ≤70 mg/dL; healthy subjects; 1.5 mg, multiple ascending dose): 0%
C=Cc1cc(O)cc2ccc3c(C)c(O)ccc3c12  inhibition (rep main protease; reporter gene (Gaussia luciferase), inhibitor; 20 µM): -2.73%
CC[C@H](C)[C@H](NC(=O)[C@H](CC(C)C)NC(=O)[C@H](Cc1c[nH]c2ccccc12)NC(=O)[C@H](CCC(N)=O)NC(=O)[C@@H](NC(=O)[C@H](Cc1ccccc1)NC(=O)[C@H](C)NC(=O)[C@H](CCCCNC(=O)COCCOCCNC(=O)COCCOCCNC(=O)CC[C@H](NC(=O)CCCCCCCCCCCCCCCCCCC(=O)O)C(=O)O)NC(=O)[C@H](CCC(N)=O)NC(=O)[C@H](C)NC(=O)[C@@H](NC(=O)[C@H](CCCCN)NC(=O)[C@H](CC(=O)O)NC(=O)[C@H](CC(C)C)NC(=O)C(C)(C)NC(=O)[C@@H](NC(=O)[C@H](CO)NC(=O)[C@H](Cc1ccc(O)cc1)NC(=O)[C@H](CC(=O)O)NC(=O)[C@H](CO)NC(=O)[C@@H](NC(=O)[C@H](Cc1ccccc1)NC(=O)[C@@H](NC(=O)CNC(=O)[C@H](CCC(=O)O)NC(=O)C(C)(C)NC(=O)[C@@H](N)Cc1ccc(O)cc1)[C@@H](C)O)[C@@H](C)O)[C@@H](C)CC)[C@@H](C)CC)C(C)C)C(=O)N[C@@H](C)C(=O)NCC(=O)NCC(=O)N1CCC[C@H]1C(=O)N[C@@H](CO)C(=O)N[C@@H](CO)C(=O)NCC(=O)N[C@@H](C)C(=O)N1CCC[C@H]1C(=O)N1CCC[C@H]1C(=O)N1CCC[C@H]1C(=O)N[C@@H](CO)C(N)=O  AUC(0-168 h) (human, plasma; subcutaneous, 10.0 mg once weekly, week 15, multiple doses): 263 µg·h/mL
C[C@@H]1[C@H](O)[C@@H](C)/C=C/C=C/CC/C=C/C=C/C=C/C=C/C(O[C@H]2O[C@H](C)[C@@H](O)[C@H](N)[C@@H]2O)CC2O[C@](O)(CC(O)C(O)CCC(O)CC(O)CC(O)CC(=O)O[C@H]1C)CC(O)C2C(=O)O (stereo partly shown)  kon (Spike glycoprotein; binding, biolayer interferometry): 241 M⁻¹ s⁻¹
NC1CCC2(CCCCC2)CC1  remaining activity (Matrix protein 2 (Influenza A virus, UniProt P0DOF5); channel activity, inhibitor; 100 µM, 2 min): 10.6 ± 0.7%
CCOc1ccc(NC(=O)c2cnn(-c3ccc(C)c(Cl)c3)c2C2CCNCC2)cc1  AC50 (SARS-CoV-2; cytopathic effect, cell-based CPE; USA_WA1/2020): 14.1 µM
NC1=N[C@@]2(c3cc(NC(=O)c4ccc(F)cn4)ccc3F)COC[C@H]2CS1  inhibition (rep main protease; reporter gene (Gaussia luciferase), inhibitor; 20 µM): -0.258%
O=C(O)c1cc(OCc2cn([C@@H]3O[C@H](CO)[C@H](O[C@H]4O[C@H](CO)[C@H](O)[C@H](O)[C@H]4O)[C@H](O)[C@H]3O)nn2)cc(OCc2cn([C@@H]3O[C@H](CO)[C@H](O[C@H]4O[C@H](CO)[C@H](O)[C@H](O)[C@H]4O)[C@H](O)[C@H]3O)nn2)c1  Hill slope (Shiga toxin subunit B (stxB, Shigella dysenteriae, UniProt Q7BQ98); Escherichia coli): -0.789
Cc1cc(C2CCCCC2)n(OCOP(=O)(O)O)c(=O)c1  inhibition (rep main protease; viral replication, mKate2 reporter; SARS-CoV-2; 20 µM): 0.543%
Cn1cnc(Cn2c(=O)[nH]/c(=N\c3cc4cn(C)nc4cc3Cl)n(Cc3cc(F)c(F)cc3F)c2=O)n1  patients with adverse event (human, normal renal function; oral, 375 mg, treatment-related dry mouth, Moderate severity): 0%
O=C(O)CCc1cc(C(=O)c2ccc(OC3CCCC3)cc2O)ccc1OCc1ccc2c(=O)[nH]oc2c1  inhibition (rep main protease; viral replication, mKate2 reporter; SARS-CoV-2; 20 µM): -0.934%
Nc1ncnc2c([C@@H]3N[C@H](CO)[C@@H](O)[C@H]3O)c[nH]c12  inhibition (Severe acute respiratory syndrome coronavirus; viral replication, inhibitor; Vero 76; 0.9 µM): 0%
